Measured values from different studies.
Each numbered part is a random draw from the data of one study; scales do not carry over between parts.

Series 1
Target: Interferon regulatory factor 5, full length, phosphomimetic (IRF5, Homo sapiens, UniProt Q13568-2, residues 1-514, S451D/S453D/S456D/S462D)
Method: protein-binding microarray
Form: double-stranded DNA, one strand shown
Sample: in vitro
Concentration: 940 nM top
Notes: 60-bp whole probe
Added: salmon DNA 0.4 mg/ml
Reference: random background probes
Reading: higher = stronger binding
Endpoint: fitted relative affinity
All sequences stand within: GCCTAGCAC … GTCTTGATTCGCTTGACGCTGCTG
Strand = GACGGTTTCGATTCCGGGACGTGCTAG; value = 12.4 z-score
Strand = TTTGGACTGGGTCTCGGTTAGTGCTAG; value = 1.48 z-score
Strand = GACGGACTGAGGTTTCGGGACGTGCTA; value = 1.4 z-score
Strand = TATGGTATGCTCATGACAAAGTGCTAG; value = -0.382 z-score
Strand = GACGATCTCAGACTAGAGACGTGCTAG; value = -0.317 z-score
Strand = TTAGGTTTCGGACTGGGTAAGTGCTAG; value = 7.96 z-score
Strand = ATAGGTTTCCTTTCCCTTTAGTGCTAG; value = 1.81 z-score
Strand = TCAGTTACGGAATTTCCCACTGTGCTA; value = 0.42 z-score
Strand = TTAGGTATCGGGTATCGGTTTGTGCTA; value = 7.03 z-score
Strand = TCACCTACAGGTTCTCTGACTGTGCTA; value = 0.0139 z-score
Strand = TTAGGTATCCTGATCCTTTAGTGCTAG; value = -0.553 z-score
Strand = GACGATATCAGTGTCGAGACGTGCTAG; value = 0.00434 z-score
Strand = TCAGAACTGGGGACTGGATTAGTGCTA; value = -0.288 z-score

Series 2
Target: RNA binding protein fox-1 homolog 2, RRM domain, GST-SBP tag (RBFOX2, Homo sapiens, UniProt O43251-10, residues 100-194)
Method: RNA Bind-n-Seq
Form: RNA
Sample: in vitro
Concentration: 365 nM
Notes: natural RNA segment, single round, ends assumed
Reference: no-protein control
Reading: higher = stronger binding
Endpoint: RBNS enrichment (R)
All sequences stand within: GGGAGUUCUACAGUCCGACGAUC … UGGAAUUCUCGGGUGCCAA
Construct (chain): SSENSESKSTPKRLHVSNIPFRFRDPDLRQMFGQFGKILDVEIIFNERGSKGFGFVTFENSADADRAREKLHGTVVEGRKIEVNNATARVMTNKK
Strand = ACCAAGAGGUGCUUUUUAAUAAAUGGAUAUUGAAGUUAGGGUGUUACUAAUUUGAUGUAUGGUUUCACAGUCUAGCAUACUGUCCUUUGACAUCUGCCUUUAAGACUUGG; value = 0.429
Strand = CCUCAGGCAGGGAUGGUGCUUGAGGCUGGGUGCAGAGAUAUGCCUGCAUGGCUCUCUUGUAGCCAAAGGUGGGGAGAUUCUGCGUGGGAGAACUUGGUGUCUCACCCUGG; value = 0.58
Strand = AAAUUUUAGCUUAUAUAUGACGGUAUAUUUACAAAAAGAGAAAGAGAAAAUCUGGUAUUUGCAAUGAUCUGUGCCUUCUUUUUACCACCCUCUUGAUUGGAGCUUUUGUG; value = 0.615
Strand = CCUCCCUCUCAUCCCAAAGCAGGUAUCUUCUGGUUGUCACAGAGUUUCAUUGAGUCCAGCUGCAGCCACGUGGCCAUCUGGAGCUGGUGCUAUAGGUGACCAUCUGGUAC; value = 0.402
Strand = CGGCCUCCACAGUUAGAUGUUUAUGGUGCCAGAGGUCUAUAUUAAGGUAGCUGUCUGUUGCUAGGCAGCCGUUUGCACAAAUCUUGGACAUAAAUCCAACUUGAAGAUCA; value = 0.54
Strand = GAAAUAAAUGUGAUUUUUGUCCGAUCCUUCUGGUUUUCAUGAAGAUUAGCUGCCAUGUUUUAUUCUUAUAAGGAAAAGCACAGAGAUCAUUAAAGUAAGUUUUACAAUAA; value = 0.373
Strand = UCUUUUUCUUUCUCUUUUUUUCCUUUUUCACUCAAAAUACUAUUAAGGAGUUUCUCAGACAAAUUGAAAAUUCUAUAUGUUUUGAGGAAAUAAGGGGAAGCUUUAGAGUU; value = 0.55
Strand = CAGAAUUCAACAUUAAAGAUUAAUGUUUAUUUAAACGAACACAUUCCUGCAUUCAGGAUGUGAGGCCAUUUAAUAAAAAGGGCACAAAGCCUGUCAGAGUUUUCAACGGU; value = 0.403
Strand = AGGUACUUUGGGACCCCUGGGAGGGUCCUACGUCCAGCCUCCAUCUCGGUCCUCUGGCCCCUUCUCCUUGCGGACCUCAUUUGGAAGGACACAUCUCUCUAUGCAAUUUG; value = 0.366
Strand = AAGUCAGACAUGGCUCUAAAGAGCUUCCUAAGAGACUUCCCGAGAGAGAGACAAAAGUGUUUGUUUGUUUUGUUUCCAGGAGCUUGUCAAAUAAACCAAUGAAAAAGCUU; value = 0.505
Strand = GCUGUUUUAAAGCCCAUUUCACGAGGAACAAAGAUUUACUUCCUGUCCUGCCAUUCGUGUGCUUCCAUGGACAAACCUGAUUUUUUUCUCUUAGUUCUAAAGAAUCUUGG; value = 0.29
Strand = ACCCUUGUUUGAUUUUAGCUGCAGAACGUAUUGGUCCAGCUUGCUCUUCAGUGGGAGAAAACACUUGUAAGUUGCUAAACGAGUCAAUCCCCUCAUUCAGGAAAACUGAC; value = 0.484

Series 3
Target: Ras GTPase-activating protein-binding protein 1, full length (G3BP1, Homo sapiens, UniProt Q13283)
Sequence of UniProt Q13283 (whole entry, looked up): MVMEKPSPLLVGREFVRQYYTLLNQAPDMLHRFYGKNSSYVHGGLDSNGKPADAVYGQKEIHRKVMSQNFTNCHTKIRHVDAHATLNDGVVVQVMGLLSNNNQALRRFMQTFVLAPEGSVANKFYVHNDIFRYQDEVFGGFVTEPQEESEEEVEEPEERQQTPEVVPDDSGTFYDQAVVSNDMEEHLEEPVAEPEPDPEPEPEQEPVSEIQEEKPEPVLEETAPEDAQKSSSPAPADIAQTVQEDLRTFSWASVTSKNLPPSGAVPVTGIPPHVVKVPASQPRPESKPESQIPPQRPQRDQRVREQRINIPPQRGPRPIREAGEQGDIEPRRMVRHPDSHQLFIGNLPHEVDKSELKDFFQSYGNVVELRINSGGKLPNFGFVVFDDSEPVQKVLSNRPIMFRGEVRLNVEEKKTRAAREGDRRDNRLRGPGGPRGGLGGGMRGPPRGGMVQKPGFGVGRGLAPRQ
Method: RNA Bind-n-Seq
Form: RNA
Sample: in vitro
Concentration: 200 nM
Notes: whole 134-nt RNA, ends assumed
Added: 150 mM KCl
Reference: input library
Reading: higher = stronger binding
Endpoint: log2 enrichment
All sequences stand within: GGGAGUUCUACAGUCCGACGAUC … UGGAAUUCUCGGGUGUCAAGG
Strand = UCCUGUGCUACACAUCGUAUGUACCGAAUCGGGGAAAAAAAGGGGAAAGGGGAAAGGGGAAAGUAUUAUGUUACGCCGUUCGGAUCUGCA; value = 0.825
Strand = UCCUCAAGUCCUGUGCUACACAUCGUAUGUACCGAAUCGGAAAGGAGGAGGAAAGUAUUAUGUUACGCCGUUCGGAUCUGCACUUCCAGC; value = -0.788
Strand = CUGUGCUACACAUCGUAUGUACCGAAUCGGCCCCCCCGGGCCCCCCCGGGCCCCCCCGGGGAAAGUAUUAUGUUACGCCGUUCGGAUCUG; value = -0.982
Strand = GCAGGAAGUAAAAACAAAUGGAAAUGCUUCGGAUAGUGGCAGGGGUGGGGGUUGCUAAGGAAAGGGUGGGAUGGGAGUGGUUAAAGAGUU; value = 0.693
Strand = GCAGGAAGUAAAAACAAAUGGAAAUGCUUCGGAUAUUGGCAGGGGUGGGGGUUGCUAAGGAAAGGGUGGGAUGGGAGUGGGUAAAGAGUU; value = 1.66
Strand = UGGCCCUGGUGGCAUGCGGGGAGGAAGAGGUGGCCUCAUGGACCGUGGUGGUCCCGGUGGAAUGUUCAGAGGUGGCCGUGGUGGAGACAG; value = 0.382
Strand = UUCCUCAAGUCCUGUGCUACACAUCGUAUGUACCGAAUCGGGUGGUGGUGGAAAGUAUUAUGUUACGCCGUUCGGAUCUGCACUUCCAGC; value = -0.288
Strand = AAGUCCUGUGCUACACAUCGUAUGUACCGAAUCGGGGAAAGGGAAAGGGGAAAGGGGAAAGUAUUAUGUUACGCCGUUCGGAUCUGCACU; value = 0.257
Strand = GUCCUGUGCUACACAUCGUAUGUACCGAAUCGGGGAAAGGGGUUUUUGGGGUUUGGGGAAAGUAUUAUGUUACGCCGUUCGGAUCUGCAC; value = 0.447
Strand = AAGUCCUGUGCUACACAUCGUAUGUACCGAAUCGUGUGUGUGUGUGUGUGUGUGUGUAAAGUAUUAUGUUACGCCGUUCGGAUCUGCACU; value = 0.557
Strand = UGGGAGGUGGAUUUUGGUUAUUUUUUUAGCUCAUUUCCAGGGGUGGGAAUUUUUUUUUAAUAUGUGUCAUGAAUAAAGUUGUUUUUGAAA; value = 0.15
Strand = CCUGUGCUACACAUCGUAUGUACCGAAUCGGGUUUUUUGGGGUUUUUUGGGUUUUUUGGGAAAGUAUUAUGUUACGCCGUUCGGAUCUGC; value = -0.582

Series 4
Target: RING finger protein unkempt homolog, zinc fingers 1-6, GST-SBP tag (UNK, Homo sapiens, UniProt Q9C0B0, residues 30-357)
Sequence of UniProt Q9C0B0 (30-357, looked up): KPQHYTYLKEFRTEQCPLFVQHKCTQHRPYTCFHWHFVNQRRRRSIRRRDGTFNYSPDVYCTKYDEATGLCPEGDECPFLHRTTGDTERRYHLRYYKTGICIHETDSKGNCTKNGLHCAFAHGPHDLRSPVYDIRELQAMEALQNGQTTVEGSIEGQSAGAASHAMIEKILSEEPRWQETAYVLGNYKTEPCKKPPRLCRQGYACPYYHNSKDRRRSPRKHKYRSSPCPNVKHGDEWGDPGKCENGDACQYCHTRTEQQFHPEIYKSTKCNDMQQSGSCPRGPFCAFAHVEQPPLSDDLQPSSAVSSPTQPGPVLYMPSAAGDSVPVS
Method: RNA Bind-n-Seq
Form: RNA
Sample: in vitro
Concentration: not given
Notes: RNA with constant flanks, human and mouse sites, ends assumed
Reference: input RNA pool
Reading: higher = stronger binding
Endpoint: bound/input enrichment
All sequences stand within: GGGAGUUCUACAGUCCGACGAUC … CAACAGAGGAUUGAGCAUCA
Strand = GGCUGGGAAACUUCAAAGCCUUCCCAGUCCCCAGCACCUGCCUUUCUCACUACUUCUCUGGAGAUGGUAGGAGAGUUUCCUAGGUCUUUCCAGGGCAGCAUGUGAUUCAUUUGGGGAUGG; value = 0.0914 ratio
Strand = GUGGGAGUUCUCCUACAGGAUCAUGAUGUUCGGCAGAGUGAAUUUCAGCAACUUCCGUACCAUAGGAUUUUUAUCAUGCUGCUGUUGGAGCUCAAUGCACCCGAGCAUGUGUUGGAAACC; value = 5.41 ratio
Strand = AAAUAUAUGAAAAGUAGAACUAUUCUACAGCAGCACAUGAAGAAAUGUGGUUGGUUCCAUCCUCCUGCCAAUGAGAUUUACCGAAAGAAUAAUAUUUCUGUCUUUGAGGUUGAUGGGAAC; value = 0.219 ratio
Strand = GUGACCUGUGAGGACAUAAUGCCUUGGUUUUUUCUAAUGUAGAUGAUAUGGCUGUGAUACAUUAGGGCCAGCGUUAACCUCUGCUCCUCCUCCCUCUGUAGUUUUUACCUACAAUCAAUU; value = 0.318 ratio
Strand = UGCCUAUCUGAAAACUUUGGGCUCUUUCUUGUUUCUUUCCCAAAAUUCAGAAGUUAAUGGGCUUUUAUGUUUUUCUAUAUUUUUUUUAUUUCAAUGAUUUGGCCUGUCUAUGUUAGGCUA; value = 23 ratio
Strand = CAAUUAUAUGAAUAGCAGAAGGUCCAUUUGACUCUUGUAGUUCAAGAGCUGUUUCUAAGUAAACAGACUUUCCAGAGCUCGAUGAAGUGAAGAAGCCCUUCUUUCAAUUCCUGGGCAGAA; value = 0.141 ratio
Strand = UUAAUGUUUAAGUUCAAAUUAAUGUAGAGCCCUCCCUCUUUUGGGGGGUAAACUUUUUAAAUUAGGACUUACAGGAGAUCAAGAAGGAACUUUCAAAGACGGGUGAGGAGAAGUACAUAG; value = 0.822 ratio
Strand = UUAAUAGGCUUAAUAAUUGUUGGCAAAGAUCCUUUUGCUUUUUUCGGCAUGCAAGCUCCUAGCAUCUGGCAGUGGGGCCAAGAAAAUAAGGUUUAUGCAUGUAUGAUGGUUUUCUUCCUG; value = 1.18 ratio
Strand = AUUUGUUUCUUAUAAUAGCCCCUGGAGGAAUUGCUACACCCCCAGUGUAUGGUCAGCUUCUAGCUUUAUAUUUGCUCCAUAAUGACAUGAAUAAUGCAAGAUAUCUUUGGAAAAGAAUAC; value = 0.548 ratio
Strand = AUAUUGGAUGCAGUGUAACACUAUCCAAGGCAGUGACUUCAGCUUUAUAUACAUAUAAAAUAUAGUUAGUUUUAAAAUUAUUGACAUUUAUUUAAACUUUUAGAUUGGAUUGUUUGCUAU; value = 62.4 ratio
Strand = GCAAGAGAUGAUGAGGCAGCUGCAGUUGCACUUUCCUCCCUGAUUCAUGCUUUGGAUGACUUAGACAUGGUGGCCAUAGUUCGAUAUGCUUAUGACAAAAGAGCUAAUCCUCAAGUCGGC; value = 1.7 ratio

Series 5
Target: Sal-like protein 4, full length isoform B (SALL4, Homo sapiens, UniProt Q9UJQ4-2, residues 1-616)
Method: universal PBM
Form: double-stranded DNA, one strand shown
Sample: in vitro
Concentration: not given
Notes: 8-mer, flanks averaged, mean of replicates
Reading: higher = stronger binding
Endpoint: E-score
Strand = GAGGTCCC; value = -0.257
Strand = CCCGTGAA; value = -0.00532
Strand = GCGACACC; value = -0.274
Strand = GGTAAGAA; value = -0.0993
Strand = GCTGGTTA; value = 0.0171
Strand = CAGTACTG; value = -0.229
Strand = ACAGAGAG; value = -0.121
Strand = AAATACGT; value = 0.155
Strand = GACCTCAA; value = -0.0469
Strand = ACGCGACA; value = -0.00935
Strand = ACCGGAGG; value = -0.184
Strand = GTCCCGGA; value = -0.299

Some of these lines once more (series 1):
Strand = GACGATCTCAGACTAGAGACGTGCTAG; value = -0.317 z-score
Strand = GACGGACTGAGGTTTCGGGACGTGCTA; value = 1.4 z-score
Strand = GACGATATCAGTGTCGAGACGTGCTAG; value = 0.00434 z-score
Strand = ATAGGTTTCCTTTCCCTTTAGTGCTAG; value = 1.81 z-score
Strand = TTAGGTTTCGGACTGGGTAAGTGCTAG; value = 7.96 z-score
Strand = TCACCTACAGGTTCTCTGACTGTGCTA; value = 0.0139 z-score
